Assay results gathered from unrelated publications.
Lines come from different studies, so protocols differ. Several values in a cell are separate wells, animals, samples, runs or records. ± gives the spread as reported.
Chain of UniProt Q61206 (whole entry, looked up): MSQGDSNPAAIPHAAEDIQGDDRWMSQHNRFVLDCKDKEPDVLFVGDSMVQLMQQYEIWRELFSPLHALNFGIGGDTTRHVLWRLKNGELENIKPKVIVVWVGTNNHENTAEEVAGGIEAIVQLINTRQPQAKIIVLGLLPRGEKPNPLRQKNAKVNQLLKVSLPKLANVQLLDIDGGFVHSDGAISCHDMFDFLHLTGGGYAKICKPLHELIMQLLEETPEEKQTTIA
Chain of UniProt O95819 (whole entry, looked up): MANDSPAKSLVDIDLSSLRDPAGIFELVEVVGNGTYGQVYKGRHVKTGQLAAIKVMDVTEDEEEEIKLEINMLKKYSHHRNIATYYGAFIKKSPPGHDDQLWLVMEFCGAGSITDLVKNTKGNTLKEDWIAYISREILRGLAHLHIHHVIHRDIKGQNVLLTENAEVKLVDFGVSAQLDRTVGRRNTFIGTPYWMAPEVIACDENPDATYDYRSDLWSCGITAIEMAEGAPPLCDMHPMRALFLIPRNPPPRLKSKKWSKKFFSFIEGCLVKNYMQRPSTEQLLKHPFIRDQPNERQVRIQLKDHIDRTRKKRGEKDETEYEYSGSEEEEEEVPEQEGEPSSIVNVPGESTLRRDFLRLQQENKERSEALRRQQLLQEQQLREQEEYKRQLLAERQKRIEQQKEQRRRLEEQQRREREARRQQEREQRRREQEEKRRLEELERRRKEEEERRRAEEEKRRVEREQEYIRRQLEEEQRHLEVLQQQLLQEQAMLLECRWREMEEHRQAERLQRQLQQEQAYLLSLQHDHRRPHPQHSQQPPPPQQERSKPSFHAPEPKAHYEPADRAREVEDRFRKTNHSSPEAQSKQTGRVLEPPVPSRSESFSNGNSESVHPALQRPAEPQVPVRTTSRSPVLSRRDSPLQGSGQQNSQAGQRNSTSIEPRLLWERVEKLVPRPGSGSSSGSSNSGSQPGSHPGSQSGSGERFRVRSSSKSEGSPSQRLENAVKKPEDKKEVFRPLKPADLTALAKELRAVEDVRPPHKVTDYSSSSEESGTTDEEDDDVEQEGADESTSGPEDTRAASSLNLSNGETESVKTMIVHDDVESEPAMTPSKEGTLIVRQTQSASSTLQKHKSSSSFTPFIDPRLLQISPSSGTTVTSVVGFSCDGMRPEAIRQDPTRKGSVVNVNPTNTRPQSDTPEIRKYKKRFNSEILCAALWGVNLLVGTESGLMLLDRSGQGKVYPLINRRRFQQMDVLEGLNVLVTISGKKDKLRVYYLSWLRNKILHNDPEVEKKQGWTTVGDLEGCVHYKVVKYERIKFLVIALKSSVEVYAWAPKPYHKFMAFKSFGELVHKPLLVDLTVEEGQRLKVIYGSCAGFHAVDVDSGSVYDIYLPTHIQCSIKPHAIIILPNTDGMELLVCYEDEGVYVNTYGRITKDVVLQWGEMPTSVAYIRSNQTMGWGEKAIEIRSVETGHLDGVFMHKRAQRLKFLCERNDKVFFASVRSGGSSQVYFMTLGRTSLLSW
Chain of UniProt O96017 (whole entry, unmodified, looked up): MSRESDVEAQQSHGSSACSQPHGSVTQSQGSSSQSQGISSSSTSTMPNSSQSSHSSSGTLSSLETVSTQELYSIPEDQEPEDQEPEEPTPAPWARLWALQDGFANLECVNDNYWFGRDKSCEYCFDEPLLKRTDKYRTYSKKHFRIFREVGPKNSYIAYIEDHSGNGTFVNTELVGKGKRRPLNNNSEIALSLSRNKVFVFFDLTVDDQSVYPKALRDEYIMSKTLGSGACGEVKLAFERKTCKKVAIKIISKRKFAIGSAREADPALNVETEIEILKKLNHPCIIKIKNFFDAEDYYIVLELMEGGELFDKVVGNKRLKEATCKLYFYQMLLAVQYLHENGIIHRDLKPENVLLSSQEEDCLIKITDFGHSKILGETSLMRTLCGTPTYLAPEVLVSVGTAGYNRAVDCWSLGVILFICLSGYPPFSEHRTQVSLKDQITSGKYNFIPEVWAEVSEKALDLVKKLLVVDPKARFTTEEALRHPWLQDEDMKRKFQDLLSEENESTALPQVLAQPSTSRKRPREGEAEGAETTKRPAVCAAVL

For `CC[C@H](C)[C@H](NC(=O)[C@@H](Cc1c[nH]c2ccccc12)NC(=O)[C@@H]1CCCN1C(=O)[C@H](CCCCN)NC(=O)[C@H](CCCCN)NC(=O)CCNC(=O)CCNC(=O)CN1CCN(CC(=O)O)CCN(CC(=O)O)CCN(CC(=O)O)CC1)C(=O)N[C@@H](C[Si](C)(C)C)C(=O)O` [gallium-68 labelled], the tissue uptake was 0.04 ± 0.03 %ID/g (nude mouse HT-29 xenograft, brain; 90 min).
For `CS(C)(=O)=Nc1ccc(-c2ccc(-c3nc4cc(O[C@@H]5CO[C@H]6[C@@H]5OC[C@H]6O)[nH]c4cc3F)cc2)cc1`, the inhibition was -8% (CHEK2 (Homo sapiens, UniProt O96017, R145W); enzyme activity, inhibitor; 10 µM).
For `CC(C)C[C@@H](NC(=O)[C@@H](CCCNC(=N)N)NC(=O)[C@@H](Cc1c[nH]cn1)NC(=O)[C@@H](Cc1c[nH]c2ccccc12)NC(=O)[C@@H](Cc1c[nH]cn1)NC(=O)[C@@H](Cc1ccccc1)NC(=O)[C@H](NC(=O)[C@@H](Cc1ccc(O)cc1)NC(=O)CNC(=O)CNC(=O)CCOCCOCCOCCNC(=O)CN1CCN(CC(=O)O)CCN(CC(=O)O)CC1)[C@H](C)O)C(=O)N[C@H](CC(N)=O)C(=O)N1CCC[C@@H]1C(=O)O` [gallium-68 labelled], the tissue uptake was 0.67 ± 0.21 %ID/g (gamma counting; C57BL/6 mice, male, bone; intravenous, 1.85 MBq, 120 min).
With `O=C([O-])CNC(=O)CN1CCN(CC(=O)NCC(=O)[O-])CCN(CC(=O)NCC(=O)[O-])CCN(CC(=O)NCC(=O)[O-])CC1.[177Lu+3]` the tissue uptake was 0.003 ± 0.001 % injected dose/g (Sprague-Dawley rat, brain; intravenous (tail vein), dose not given, 2 h).
For `CSCC[C@H](NC(=O)CNC(=O)[C@H](CCCCN)NC(=O)[C@H](CC(C)C)NC(=O)[C@@H]1CCCN1C(=O)[C@H](CO)NC(=O)[C@H](Cc1c[nH]cn1)NC(=O)[C@H](Cc1c[nH]c2ccccc12)NC(=O)[C@H](CCCNC(=N)N)NC(=O)[C@H](CC(C)C)NC(=O)[C@H](CCCNC(=N)N)NC(=O)[C@H](Cc1c[nH]c2ccccc12)NC(=O)[C@H](CS)NC(=O)CCCCCNC(=O)CN1CCN(CC(=O)O)CCN(CC(=O)O)CCN(CC(=O)O)CC1)C(=O)O` [copper-64 labelled], the tissue uptake was 0.86 %ID/g (ex vivo biodistribution; male C57BL/6J mice, testis; intravenous, 1.85 MBq, 2 h, B16-F10 tumour-bearing).
With `CN1Cc2cc(Cl)ccc2-n2c(nnc2C2CCN(c3cccc([18F])n3)CC2)C1` the tissue uptake was 4.85 ± 0.85 %ID/g (C57BL/6 mouse male, lung; intravenous, 3.7 MBq, 30 min).
For `CC[C@H](C)[C@H](NC(=O)[C@H](CCCNC(=N)N)NC(=O)[C@H](CCCCN)NC(=O)[C@H](Cc1ccc(O)cc1)NC(=O)[C@H](CC(=O)O)NC(=O)[C@H](C)NC(=O)CNC(=O)CCOCCOCCOCCNC(=O)CN1CCN(CC(=O)O)CCN(CC(=O)O)CCN(CC(=O)O)CC1)C(=O)N[C@H](C(=O)N[C@H](C(=O)N[C@@H](CCCCN)C(=O)N[C@H](C(=O)N[C@@H](CC(N)=O)C(N)=O)C(C)C)C(C)C)[C@@H](C)O` [copper-64 labelled], the tissue uptake was 4.75 ± 0.087 %ID/g (ex vivo gamma counting; C57BL/6J male mice, B16-F10 tumour, liver; intravenous, 1.85 MBq, 40 min).
The tissue uptake of `Cc1ccccc1-c1ccc(-c2nc(-c3ccc(CN(C)CCCC(=O)O)c([18F])c3)no2)cc1C(F)(F)F` is reported as 0.09 ± 0.01 %ID/g (Sprague Dawley rats, male, fat; 5 min).
`O=C(CN1CCN(CC(=O)NCP(=O)([O-])[O-])CCN(CC(=O)NCP(=O)([O-])[O-])CCN(CC(=O)NCP(=O)([O-])[O-])CC1)NCP(=O)([O-])[O-].[Gd+3]` has a tissue uptake of 0.021 ± 0.015 % injected dose/g (Sprague-Dawley rat, muscle; intravenous (tail vein), dose not given, 2 h).
`CC[C@H](C)[C@H](NC(=O)[C@H](CCCCN)NC(=O)CNC(=O)[C@H](CC(C)C)NC(=O)[C@H](Cc1ccccc1)NC(=O)[C@H](CCCCN)NC(=O)[C@H](CO)NC(=O)[C@H](Cc1ccccc1)NC(=O)[C@H](Cc1c[nH]c2ccccc12)NC(=O)[C@H](CCC(N)=O)NC(=O)[C@@H](NC(=O)[C@H](Cc1ccccc1)NC(=O)CCCCCNC(=O)CN1CCN(CC(=O)O)CCN(CC(=O)O)CCN(CC(=O)O)CC1)C(C)C)C(=O)N[C@@H](CCC(=O)O)C(=O)N1CCC[C@H]1C(=O)N[C@@H](CC(=O)O)C(=O)N[C@H](C(=O)N[C@@H](CO)C(=O)N[C@@H](CCC(N)=O)C(=O)N[C@H](C(=O)N[C@@H](CCC(N)=O)C(=O)N[C@@H](CC(=O)O)C(=O)N1CCC[C@H]1C(=O)N[C@@H](CC(N)=O)C(=O)N[C@@H](CC(=O)O)C(=O)N[C@@H](CCC(N)=O)C(=O)N[C@@H](Cc1ccc(O)cc1)C(=O)N[C@@H](CCC(=O)O)C(=O)N1CCC[C@H]1C(=O)N[C@@H](Cc1ccccc1)C(=O)O)C(C)C)C(C)C` [copper-64 labelled] has a tissue uptake of 0.39 ± 0.03 %ID/g (C57BL/6 male mouse, tumour-naive, brain; 4 h).
`CSCC[C@@H]1NC(=O)[C@@H]2CCCN2C(=O)[C@H](C(C)C)NC(=O)[C@@H](NC(=S)Nc2ccc(CC3CN(CC(=O)O)CCN(CC(=O)O)CCN3CC(=O)O)cc2)CSSC[C@@H](C(=O)O)NC(=O)[C@H](C)NC(=O)[C@H](CCCNC(=N)N)NC(=O)[C@H](Cc2ccc(O)cc2)NC(=O)[C@H]([C@@H](C)O)NC1=O` (stereo partly shown) [gallium-68 labelled]: “tumour to muscle ratio” 8.22 ± 1.6 (PET; mouse B16-F10 tumour; intravenous, 1 h).
`CN(CCCO)Cc1ccc(-c2noc(-c3ccc(OCC[18F])c(C(F)(F)F)c3)n2)cc1F` gave a tissue uptake of 3.57 ± 0.17 %ID/g (Sprague-Dawley rats, male, kidney; 5 min post-injection).
For `C[C@H](O)[C@@H](NC(=O)[C@H]1CCCN1C(=O)[C@@H](CCCCN)NC(=O)[C@@H](CO)NC(=O)[C@@H](Cc1ccc(O)cc1)NC(=O)[C@@H](CC(N)=O)NC(=O)CCOCCOCCOCCNC(=O)CN1CCN(CC(=O)O)CCN(CC(=O)O)CCN(CC(=O)O)CC1)C(=O)N[C@H](CC(=O)O)C(=O)N[C@H](CCCNC(=N)N)C(=O)N[C@H](CCC(N)=O)C(=O)N[C@H](Cc1ccc(O)cc1)C(=O)N[C@H](Cc1c[nH]cn1)C(=O)N[C@H](Cc1ccccc1)C(N)=O` [copper-64 labelled], the tissue uptake was 0.97 ± 0.13 %ID/g (C57BL/6J mouse, blood; intravenous, 1.85 MBq, 0.6667 h).
For `CCCC[C@H]1C(=O)N(C)[C@@H](CCCC)C(=O)N[C@@H](CCCNC(=O)CN2CCN(CC(=O)O)CCN(CC(=O)O)CCN(CC(=O)O)CC2)C(=O)N[C@H](C(=O)NCC(N)=O)CSCC(=O)N[C@@H](Cc2ccc(O)cc2)C(=O)N(C)[C@@H](C)C(=O)N[C@@H](CC(N)=O)C(=O)N2CCC[C@H]2C(=O)N[C@@H](Cc2c[nH]cn2)C(=O)N[C@@H](CC(C)C)C(=O)N(C)CC(=O)N[C@@H](Cc2c[nH]c3ccccc23)C(=O)N[C@@H](CO)C(=O)N[C@@H](Cc2c[nH]c3ccccc23)C(=O)N1C` [gallium-68 labelled], the tissue uptake was 0.89 ± 0.13 %ID/g (NOD/SCID mice, CHO-hPD-L1 xenograft, muscle; 60 min, PBS pretreatment).
The relative abundance of `COc1ccccc1-c1n[nH]c2nc(NC3CCN(C(=O)Cc4ccc(F)cc4F)CC3)ncc12` is reported as 1.46 (bead binding, competition bead pull-down, measured: LINJ.25.2090; Leishmania donovani axenic amastigote extract; 10 µM; baseline: vehicle).
`CC(C)[C@H]1NC(=O)C[C@H]2/C=C/CCSSC[C@@H](NC1=O)C(=O)N[C@H](Cc1cccc3ccccc13)C(=O)NCC(=O)O2` gave an inhibition of -1% (MAP4K4 (Homo sapiens, UniProt O95819); enzyme activity, inhibitor; 10 µM).
`CC[C@H](C)[C@H](NC(=O)[C@H](CCCNC(=N)N)NC(=O)[C@H](CCCCN)NC(=O)[C@H](Cc1ccc(O)cc1)NC(=O)[C@H](CC(=O)O)NC(=O)[C@H](C)NC(=O)CNC(=O)CCOCCOCCOCCNC(=O)CN1CCN(CC(=O)O)CCN(CC(=O)O)CCN(CC(=O)O)CC1)C(=O)N[C@H](C(=O)N[C@@H](CC(C)C)C(=O)N[C@@H](CCCCN)C(=O)N[C@H](C(=O)N[C@@H](CC(N)=O)C(N)=O)C(C)C)[C@@H](C)O` [copper-64 labelled] has a tissue uptake of 0.471 ± 0.074 %ID/g (ex vivo gamma counting; C57BL/6J male mice, B16-F10 tumour, pancreas; intravenous, 1.85 MBq, 40 min).
Under “organ-to-body weight ratio”, `O=C1NC2(CC2)COc2ncc(F)cc2[C@H]2COCCN2c2ccn3ncc1c3n2` is recorded as 0.159 ± 0.023% (Sprague-Dawley rat, female, uterus; oral, 10 mg/kg/day, 4 weeks dosing, end of recovery).
`CC(C)CC(O)(CC(C)C)c1cn(C(=O)N2CCCC2)nn1` — result for “SILAC activity ratio”: 1.24 and 1.29 and 1.16 and 1.1 (Platelet-activating factor acetylhydrolase IB subunit alpha2 (Mus musculus, UniProt Q61206); probe labelling, inhibitor, competitive ABPP-SILAC, measured: Pafah1b2; mouse T cells; concentration not given, 4 h, single peptide; baseline: treated over DMSO cells, lower = stronger inhibition).

For quick reference, copied from above:
For `CS(C)(=O)=Nc1ccc(-c2ccc(-c3nc4cc(O[C@@H]5CO[C@H]6[C@@H]5OC[C@H]6O)[nH]c4cc3F)cc2)cc1`, the inhibition was -8% (CHEK2 (Homo sapiens, UniProt O96017, R145W); enzyme activity, inhibitor; 10 µM).
For `CC(C)C[C@@H](NC(=O)[C@@H](CCCNC(=N)N)NC(=O)[C@@H](Cc1c[nH]cn1)NC(=O)[C@@H](Cc1c[nH]c2ccccc12)NC(=O)[C@@H](Cc1c[nH]cn1)NC(=O)[C@@H](Cc1ccccc1)NC(=O)[C@H](NC(=O)[C@@H](Cc1ccc(O)cc1)NC(=O)CNC(=O)CNC(=O)CCOCCOCCOCCNC(=O)CN1CCN(CC(=O)O)CCN(CC(=O)O)CC1)[C@H](C)O)C(=O)N[C@H](CC(N)=O)C(=O)N1CCC[C@@H]1C(=O)O` [gallium-68 labelled], the tissue uptake was 0.67 ± 0.21 %ID/g (gamma counting; C57BL/6 mice, male, bone; intravenous, 1.85 MBq, 120 min).
